# Measured values of several laboratories.
# Each line is one published result; not all experiments were run side by side. ± gives the spread as reported.
# PDK1: [Pyruvate dehydrogenase (acetyl-transferring)] kinase isozyme 1, mitochondrial (PDK1, Homo sapiens, UniProt Q15118)
# Chain of UniProt Q15118 (whole entry, looked up): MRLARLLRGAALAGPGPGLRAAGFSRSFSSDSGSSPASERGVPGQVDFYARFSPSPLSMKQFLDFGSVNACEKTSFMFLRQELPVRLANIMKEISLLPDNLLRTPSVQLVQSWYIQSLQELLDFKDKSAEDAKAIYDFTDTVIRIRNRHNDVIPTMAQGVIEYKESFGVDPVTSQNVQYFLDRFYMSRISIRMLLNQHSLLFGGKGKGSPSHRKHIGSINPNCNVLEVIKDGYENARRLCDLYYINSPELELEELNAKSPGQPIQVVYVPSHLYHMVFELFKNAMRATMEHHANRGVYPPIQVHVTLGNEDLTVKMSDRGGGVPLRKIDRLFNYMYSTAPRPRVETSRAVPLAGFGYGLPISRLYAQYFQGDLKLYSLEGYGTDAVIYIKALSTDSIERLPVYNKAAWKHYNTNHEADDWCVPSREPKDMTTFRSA
# hdac10: Polyamine deacetylase HDAC10 (hdac10, Danio rerio, UniProt F1QCV2)
# Chain of UniProt F1QCV2 (whole entry, looked up): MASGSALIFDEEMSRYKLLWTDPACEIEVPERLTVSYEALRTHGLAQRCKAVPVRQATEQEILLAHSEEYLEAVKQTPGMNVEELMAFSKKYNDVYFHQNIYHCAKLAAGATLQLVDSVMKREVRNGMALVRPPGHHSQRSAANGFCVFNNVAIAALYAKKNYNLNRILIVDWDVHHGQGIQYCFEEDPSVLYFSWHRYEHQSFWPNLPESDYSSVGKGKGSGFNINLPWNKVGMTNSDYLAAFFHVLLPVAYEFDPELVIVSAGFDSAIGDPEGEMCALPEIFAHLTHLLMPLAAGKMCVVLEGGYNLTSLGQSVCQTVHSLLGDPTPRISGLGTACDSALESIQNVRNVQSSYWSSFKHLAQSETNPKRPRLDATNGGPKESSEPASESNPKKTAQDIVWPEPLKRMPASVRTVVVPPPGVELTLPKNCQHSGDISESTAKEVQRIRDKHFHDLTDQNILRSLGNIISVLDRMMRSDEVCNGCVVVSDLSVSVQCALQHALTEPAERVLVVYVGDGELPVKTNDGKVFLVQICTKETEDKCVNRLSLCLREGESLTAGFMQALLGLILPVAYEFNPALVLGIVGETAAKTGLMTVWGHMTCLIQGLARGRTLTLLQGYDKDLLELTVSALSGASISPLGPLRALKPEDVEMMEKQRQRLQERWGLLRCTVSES
# Sigmar1: Sigma non-opioid intracellular receptor 1 (Sigmar1, Rattus norvegicus, UniProt Q9R0C9)
# Chain of UniProt Q9R0C9 (whole entry, looked up): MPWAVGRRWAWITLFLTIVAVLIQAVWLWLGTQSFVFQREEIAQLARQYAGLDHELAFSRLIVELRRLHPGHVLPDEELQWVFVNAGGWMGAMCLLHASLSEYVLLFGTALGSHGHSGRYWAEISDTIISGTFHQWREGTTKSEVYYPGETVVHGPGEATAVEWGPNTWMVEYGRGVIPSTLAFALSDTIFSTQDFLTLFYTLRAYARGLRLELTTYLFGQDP
# PNLIP: Pancreatic triacylglycerol lipase (PNLIP, Sus scrofa, UniProt P00591)
# Chain of UniProt P00591 (whole entry, looked up): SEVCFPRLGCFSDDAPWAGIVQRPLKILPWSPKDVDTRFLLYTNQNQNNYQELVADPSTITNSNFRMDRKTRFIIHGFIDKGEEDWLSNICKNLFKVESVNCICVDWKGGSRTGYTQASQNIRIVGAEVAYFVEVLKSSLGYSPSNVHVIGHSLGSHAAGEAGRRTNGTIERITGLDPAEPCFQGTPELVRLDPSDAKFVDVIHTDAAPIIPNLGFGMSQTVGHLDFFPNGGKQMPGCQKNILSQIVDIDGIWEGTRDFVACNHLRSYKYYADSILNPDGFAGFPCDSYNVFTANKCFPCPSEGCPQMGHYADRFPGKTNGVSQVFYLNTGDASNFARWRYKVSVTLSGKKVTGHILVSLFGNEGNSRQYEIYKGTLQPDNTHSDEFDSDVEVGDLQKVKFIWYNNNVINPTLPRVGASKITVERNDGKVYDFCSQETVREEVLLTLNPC
# ELANE: Neutrophil elastase (ELANE, Homo sapiens, UniProt P08246)
# Chain of UniProt P08246 (whole entry, looked up): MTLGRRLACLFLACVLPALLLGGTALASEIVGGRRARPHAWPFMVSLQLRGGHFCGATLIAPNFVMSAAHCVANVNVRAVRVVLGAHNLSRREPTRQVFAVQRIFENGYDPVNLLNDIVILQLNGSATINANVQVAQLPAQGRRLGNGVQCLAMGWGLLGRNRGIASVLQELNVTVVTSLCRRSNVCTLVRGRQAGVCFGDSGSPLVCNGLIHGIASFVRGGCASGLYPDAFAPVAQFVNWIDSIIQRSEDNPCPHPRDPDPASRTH
# CDK4 with cyclin D3: Cyclin-dependent kinase 4, with cyclin D3 (CDK4, Homo sapiens, UniProt P11802)
# Chain of UniProt P11802 (whole entry, looked up): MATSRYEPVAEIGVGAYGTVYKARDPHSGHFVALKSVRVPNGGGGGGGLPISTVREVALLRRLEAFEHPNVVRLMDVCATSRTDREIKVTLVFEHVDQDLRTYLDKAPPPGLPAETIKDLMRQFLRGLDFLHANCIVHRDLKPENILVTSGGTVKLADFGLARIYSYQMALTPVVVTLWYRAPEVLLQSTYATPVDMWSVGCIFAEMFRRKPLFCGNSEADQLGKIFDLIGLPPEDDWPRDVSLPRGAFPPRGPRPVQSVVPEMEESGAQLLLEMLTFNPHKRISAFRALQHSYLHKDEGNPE
# AKR1C2: Aldo-keto reductase family 1 member C2 (AKR1C2, Homo sapiens, UniProt P52895)
# Chain of UniProt P52895 (whole entry, looked up): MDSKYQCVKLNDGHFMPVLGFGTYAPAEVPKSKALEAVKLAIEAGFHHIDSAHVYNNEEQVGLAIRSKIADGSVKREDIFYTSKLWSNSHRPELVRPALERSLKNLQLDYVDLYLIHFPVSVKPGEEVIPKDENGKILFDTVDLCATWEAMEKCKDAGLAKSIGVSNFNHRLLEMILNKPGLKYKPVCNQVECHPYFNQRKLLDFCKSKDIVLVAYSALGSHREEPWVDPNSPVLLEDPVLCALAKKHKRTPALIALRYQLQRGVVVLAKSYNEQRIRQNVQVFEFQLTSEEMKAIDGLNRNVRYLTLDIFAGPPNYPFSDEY
# Ectonucleoside triphosphate diphosphohydrolase 3: Ectonucleoside triphosphate diphosphohydrolase 3 (Homo sapiens, UniProt O75355)
# Chain of UniProt O75355 (whole entry, looked up): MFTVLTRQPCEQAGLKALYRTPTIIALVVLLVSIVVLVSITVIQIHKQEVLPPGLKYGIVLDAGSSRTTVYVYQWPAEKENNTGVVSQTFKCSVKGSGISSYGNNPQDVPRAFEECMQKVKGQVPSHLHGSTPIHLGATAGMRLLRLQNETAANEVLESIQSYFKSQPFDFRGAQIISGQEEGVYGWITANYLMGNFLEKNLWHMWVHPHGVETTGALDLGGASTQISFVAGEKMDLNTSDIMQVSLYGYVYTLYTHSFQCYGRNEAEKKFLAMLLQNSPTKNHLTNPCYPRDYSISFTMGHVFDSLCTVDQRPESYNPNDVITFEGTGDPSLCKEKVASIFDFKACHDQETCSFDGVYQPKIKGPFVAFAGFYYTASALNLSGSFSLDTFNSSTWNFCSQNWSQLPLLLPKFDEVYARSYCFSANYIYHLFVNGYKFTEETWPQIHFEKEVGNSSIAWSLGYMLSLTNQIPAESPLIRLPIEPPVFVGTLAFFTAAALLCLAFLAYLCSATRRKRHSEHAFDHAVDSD
# Chain of UniProt Q13131 (whole entry, looked up): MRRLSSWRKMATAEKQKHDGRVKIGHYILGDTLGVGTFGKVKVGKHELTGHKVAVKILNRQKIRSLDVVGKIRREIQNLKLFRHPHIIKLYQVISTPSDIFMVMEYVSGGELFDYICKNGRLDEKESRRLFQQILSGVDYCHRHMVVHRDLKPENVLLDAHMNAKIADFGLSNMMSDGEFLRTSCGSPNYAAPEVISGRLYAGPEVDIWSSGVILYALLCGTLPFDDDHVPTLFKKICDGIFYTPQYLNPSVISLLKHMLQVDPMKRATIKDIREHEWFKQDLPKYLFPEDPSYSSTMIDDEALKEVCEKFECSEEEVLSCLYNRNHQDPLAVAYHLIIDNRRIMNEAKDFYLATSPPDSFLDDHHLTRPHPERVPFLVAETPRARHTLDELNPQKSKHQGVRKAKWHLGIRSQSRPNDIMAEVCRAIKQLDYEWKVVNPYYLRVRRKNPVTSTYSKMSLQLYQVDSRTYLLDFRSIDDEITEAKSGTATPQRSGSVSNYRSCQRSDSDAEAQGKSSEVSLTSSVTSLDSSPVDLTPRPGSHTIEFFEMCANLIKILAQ
# Chain of UniProt P00690 (whole entry, looked up): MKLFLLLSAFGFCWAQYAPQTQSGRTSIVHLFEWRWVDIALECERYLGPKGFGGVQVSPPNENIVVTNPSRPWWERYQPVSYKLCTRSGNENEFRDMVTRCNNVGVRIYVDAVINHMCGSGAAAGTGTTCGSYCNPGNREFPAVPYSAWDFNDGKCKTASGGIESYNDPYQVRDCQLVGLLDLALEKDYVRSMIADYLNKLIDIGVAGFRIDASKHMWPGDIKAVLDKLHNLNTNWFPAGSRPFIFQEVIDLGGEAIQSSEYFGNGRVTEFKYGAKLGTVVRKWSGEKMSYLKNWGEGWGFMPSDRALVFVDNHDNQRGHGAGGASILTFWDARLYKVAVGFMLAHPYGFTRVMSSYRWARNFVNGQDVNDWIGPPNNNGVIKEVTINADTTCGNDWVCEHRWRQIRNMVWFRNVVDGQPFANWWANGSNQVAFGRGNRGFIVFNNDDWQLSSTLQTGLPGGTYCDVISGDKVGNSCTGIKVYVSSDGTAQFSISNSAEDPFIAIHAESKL
# Chain of UniProt P45568 (whole entry, looked up): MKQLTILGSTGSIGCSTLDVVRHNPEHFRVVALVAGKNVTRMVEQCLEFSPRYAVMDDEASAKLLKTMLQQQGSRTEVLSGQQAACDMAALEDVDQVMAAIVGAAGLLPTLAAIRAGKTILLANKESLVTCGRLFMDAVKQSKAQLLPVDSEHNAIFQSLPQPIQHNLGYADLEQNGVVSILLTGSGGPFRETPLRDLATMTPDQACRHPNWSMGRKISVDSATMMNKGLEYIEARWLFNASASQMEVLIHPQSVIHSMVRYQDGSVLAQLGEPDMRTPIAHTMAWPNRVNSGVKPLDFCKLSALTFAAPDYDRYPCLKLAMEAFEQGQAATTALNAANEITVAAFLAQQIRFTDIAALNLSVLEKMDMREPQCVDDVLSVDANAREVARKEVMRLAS
# Chain of UniProt P00921 (whole entry, looked up): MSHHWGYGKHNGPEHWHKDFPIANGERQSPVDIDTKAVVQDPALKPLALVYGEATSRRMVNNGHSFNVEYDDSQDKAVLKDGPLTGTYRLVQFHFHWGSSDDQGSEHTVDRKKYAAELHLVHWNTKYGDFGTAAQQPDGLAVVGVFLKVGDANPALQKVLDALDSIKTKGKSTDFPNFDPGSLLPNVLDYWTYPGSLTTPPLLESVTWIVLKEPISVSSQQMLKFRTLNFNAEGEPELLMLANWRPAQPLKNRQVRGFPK
SMILES,target,test,system,setting,inhibition
Oc1cccc(Nc2ncnc3[nH]c4cc(Br)ccc4c23)c1,"Protein-tyrosine kinase 6 (PTK6, Homo sapiens, UniProt Q13882)","enzyme activity, inhibitor, ADP detection",,2 µM,77.5%
CC[C@H](C)[C@H](NC(=O)[C@H](Cc1ccccc1)C[C@H](O)[C@@H](N)COc1ccc(-c2ccc(F)cc2)c(OCCCOC)c1)C(=O)NCc1ccc(Cl)cc1,"Beta-secretase 1 (BACE1, Homo sapiens, UniProt P56817)","Aβ production, ELISA",HEK293 expressing APP751 Swedish,1 µM,19%
N#Cc1c(NC(=O)c2ccc(Cl)cc2)sc2c1CCC(c1ccccc1)C2 (centres unmarked),PDK1,"enzyme activity, inhibitor, ATP luminescence",,100 µg/mL,29%
O=C(/C=C/c1ccccc1Br)NO,hdac10,,,0.1 µM,23%
CCC(=O)N(C)c1ccc(Cl)c(Cl)c1,"5-hydroxytryptamine receptor 3A (HTR3A, Homo sapiens, UniProt P46098)","ligand displacement, radioligand",,10 µM,12.4%
C/C(=N\OCCN(C)Cc1ccccc1)c1ccccc1C(F)(F)F,Sigmar1,radioligand binding,,10 µM,72.3%
C[C@H](NC(=O)CNC(=O)[C@H](Cc1ccc(O)cc1)NC(=O)[C@@H](N)CSSC[C@H](N)C(=O)N[C@@H](Cc1ccc(O)cc1)C(=O)NCC(=O)N[C@@H](C)C(=O)N[C@@H](CCCCN)C(N)=O)C(=O)N[C@@H](CCCCN)C(N)=O,"Calpain-10, mitochondrial (Oryctolagus cuniculus, UniProt G1TPK4)",enzyme activity,mitochondrial matrix,"1 µM, 15 min preincubation",> 90%
Oc1cc(O)c2c(c1)O[C@H](c1cc(O)c(O)c(O)c1)[C@@H](O)C2 (racemic),PNLIP,"enzyme activity, inhibitor",,10 µM,56.7%
O=C(NO)c1coc(-c2ccc(Br)cc2)n1,hdac10,,,0.1 µM,33%
COc1ccc(-c2nc(CSc3nc(N)c(C#N)c(-c4ccc5c(c4)OCO5)c3C#N)cs2)cc1,"Adenosine receptor A3 (ADORA3, Homo sapiens, UniProt P0DMS8)","ligand displacement, radioligand",,"1 µM, cell membranes",47%
Cc1cccc(NCC(=O)Nc2nc3ccccc3s2)c1,"Phosphatidylinositol 4,5-bisphosphate 3-kinase catalytic subunit gamma isoform (PIK3CG, Homo sapiens, UniProt P48736)","enzyme activity, inhibitor, ADP detection",,100 µM,48%
CC(C)C[C@H]1CNC(=O)N2C[C@H](C[C@H]2C(N)=O)SCC(=O)NCCNC(=O)CSC[C@H](NC(=O)[C@H](Cc2ccccc2)NC(=O)[C@H](CO)NC(=O)[C@@H](N)[C@@H](C)O)C(=O)N[C@@H](CCC(=O)O)C(=O)N[C@@H](Cc2ccc(O)cc2)C(=O)N[C@@H](Cc2c[nH]c3ccccc23)C(=O)N[C@@H](C)C(=O)N[C@@H](CC(C)C)CNC(=O)N1,"Protein Mdm4, with p53 (MDM4, Homo sapiens, UniProt O15151)","inhibitor, HTRF",,100 nM,43%
COc1cc(/C=N\C(=S)NNC(=O)CC2C(=O)c3ccccc3C2=O)cc(OC)c1OC,ELANE,"enzyme activity, inhibitor, fluorescence",,50 µM,28.1%
Cc1[nH]c2ccccc2c1CCNC(=O)c1cccs1,"ACTR3/Actin-related protein 2 (Homo sapiens, UniProt P61158+P61160)","actin polymerization, pyrenyl-actin",,"20 µM, together with: 300 nM ActA",inhibited
O=C(CCCCCCOc1ccc(Nc2ncc(F)c(-c3cn(C4CCCCC4)nn3)n2)cc1)NO,CDK4 with cyclin D3,"enzyme activity, inhibitor, TR-FRET",,5 µM,17%
COc1ccc2c(c1)CC[C@@H]1[C@@H]2CC[C@]2(C)C(=O)CC[C@@H]12,AKR1C2,"enzyme activity, inhibitor, absorbance",,"100 µM, pH 9",70%
Oc1ccc2cccc(O)c2n1,"1-deoxy-D-xylulose 5-phosphate reductoisomerase (Escherichia coli K-12, UniProt P45568)","enzyme activity, inhibitor, absorbance",,100 µM,100%
C[C@@H](N)C1CCN(S(=O)(=O)c2cccc3c(=O)[nH]ccc23)CC1,"Myotonin-protein kinase (DMPK, Homo sapiens, UniProt Q09013)","cell-free assay, competition with immobilised ligand",,10 µM,> 95%
C[C@]12CC[C@@H]3c4ccc(O)c(Br)c4CC[C@H]3[C@@H]1CCC2=O,AKR1C2,"enzyme activity, inhibitor, absorbance",,"10 µM, pH 9",73%
O=C(/C=C/c1cc(F)ccc1Br)NO,hdac10,,,1 µM,50%
Cc1ccc(C(=O)N2CCN(Cc3noc(-c4ccccc4)n3)CC2)c(C)c1,"Sodium channel protein type 9 subunit alpha (SCN9A, Homo sapiens, UniProt Q15858)","sodium current, whole-cell patch clamp","HEK293, stable",20 µM,4 ± 2%
O=C(Nc1ccc(Cl)cc1)c1cccc(S(=O)(=O)Nc2ccc(Cl)cc2)c1,Ectonucleoside triphosphate diphosphohydrolase 3,"enzyme activity, inhibitor, absorbance",,100 µM,22%
C[C@]12CCC[C@H]1[C@@H]1CCc3c(cc(Cl)c(O)c3Cl)[C@H]1CC2,AKR1C2,"enzyme activity, inhibitor, absorbance",,"100 µM, pH 9",76.8%
O=C(O)c1cccc(S(=O)(=O)N2CCOCC2)c1,Ectonucleoside triphosphate diphosphohydrolase 3,"enzyme activity, inhibitor, absorbance",,100 µM,35%
C/C(=N\OCCN1CCCCC1)c1ccc(C(F)(F)F)cc1,Sigmar1,radioligand binding,,10 µM,53.9%
O=C(Nc1cnc2c(c1)CCCC2)c1cn2c(n1)CN(C(=O)c1cc3cc(-c4ccccc4)ccn3n1)CC2,"Programmed cell death 1 ligand 1, with PD-1 (CD274, Homo sapiens, UniProt Q9NZQ7)","PD-1/PD-L1 binding, TR-FRET",,5 and 25 µM,no inhibition
O=[N+]([O-])c1ccc(-c2cs/c(=N/N=C/c3ccc(N4CCOCC4)cc3)n2-c2ccccc2)cc1,"Carbonic anhydrase 2 (CA2, Bos taurus, UniProt P00921)","enzyme activity, inhibitor, absorbance",,500 µM,89.8%
COc1cc(C(=O)O[C@@H]2Cc3c(O)cc(O)cc3O[C@@H]2c2ccc(O)c(O)c2)cc(O)c1O,PNLIP,"enzyme activity, inhibitor",,10 µM,47.5%
O=c1c(-c2nc3ccccc3s2)cc2c(n1NS(=O)(=O)c1ccc(Cl)cc1)CCCCCC2,"Ubiquitin carboxyl-terminal hydrolase 7 (USP7, Homo sapiens, UniProt Q93009)","enzyme activity, inhibitor, fluorescence",,100 µg/mL,71.9%
CN(CCON=Cc1ccc(C(F)(F)F)cc1)Cc1ccccc1,Sigmar1,radioligand binding,,10 µM,105%
NC(=O)c1ccc(C(=O)NOCc2ccc(Sc3cccc(Cl)c3)c(C(F)(F)F)c2)cc1,"Histone deacetylase 4 (HDAC4, Homo sapiens, UniProt P56524)","cell-free assay, inhibitor",,100 µM,0.4%
COc1cc(C(=O)NC2CCC(N3CCN(CC4CCC5(CCCC5)C4)CC3)CC2)c(F)cc1Nc1ncc2c(n1)N(C1CCCC1(F)F)CC(F)(F)C(=O)N2C (centres unmarked),"Tyrosine-protein kinase Fyn (FYN, Homo sapiens, UniProt P06241)","cell-free assay, TR-FRET",,10 µM,0.08%
C/C(=N\OCCCCN1CCOCC1)c1ccc(C(F)(F)F)cc1,Sigmar1,radioligand binding,,1 µM,57.8%
O=C(/C=C/c1ccccc1Cl)NO,hdac10,,,1 µM,73%
S=C(Nc1ccccc1Cl)Nc1cccc2cccnc12,"Beta-glucuronidase (uidA, Escherichia coli, UniProt P05804)","enzyme activity, inhibitor, absorbance",,100 µM,50.9%
C[C@@]12CC[C@@H]3c4ccc(O)cc4CC[C@H]3[C@@H]1CCC2=O,AKR1C2,"enzyme activity, inhibitor, absorbance",,"100 µM, pH 9",65%
CN(C)c1ccc(C(=O)NCC2CCC(C(=O)NO)CC2)cc1 (centres unmarked),hdac10,,,0.1 µM,11%
Cc1cccc(/C=C/C(=O)c2cnn(-c3ccccc3)c2C)c1,"Pancreatic alpha-amylase (AMY2, Sus scrofa, UniProt P00690)","enzyme activity, inhibitor, absorbance",,400 µM,42.4%
CC(=O)OC1CCC2(C)C(CCC3(C)C2CCC2C(C4=CC(C=C(C)C)OC4=O)CCC23C)C1(C)C (centres unmarked),"Tyrosine-protein phosphatase non-receptor type 1 (PTPN1, Homo sapiens, UniProt P18031)","enzyme activity, inhibitor, absorbance",,50 µM,51.5%
CCc1nc2ccccc2n1S(=O)(=O)c1ccc2c(c1)C(=O)CC2=O,ELANE,"enzyme activity, inhibitor, fluorescence",,50 µM,68.8%
COC(=O)C(Cc1cccc(C)n1)NC(=O)CCCCCCC(=O)NO (centres unmarked),hdac10,,,0.1 µM,11%
C/C(=N\OCCN1CCOCC1)c1ccc(C(F)(F)F)cc1,Sigmar1,radioligand binding,,10 µM,45.9%
C[C@@]12CC[C@@H]3c4cc(Br)c(O)cc4CC[C@H]3[C@@H]1CCC2=O,AKR1C2,"enzyme activity, inhibitor, absorbance",,"10 µM, pH 9",81.4%
N=C(N)NC(=O)c1ccc(C(=O)NCCCC[C@H](NC(=O)CNC(=O)CCC(=O)NN=Cc2cc(C=NNC(=O)CCC(=O)NCC(=O)N[C@@H](CCCCNC(=O)c3ccc(C(=O)NC(=N)N)[nH]3)C(=O)N[C@@H](Cc3c[nH]c4ccccc34)C(=O)N[C@@H](CCCCN)C(N)=O)cc(C=NNC(=O)CCC(=O)NCC(=O)N[C@@H](CCCCNC(=O)c3ccc(C(=O)NC(=N)N)[nH]3)C(=O)N[C@@H](Cc3c[nH]c4ccccc34)C(=O)N[C@@H](CCCCN)C(N)=O)c2)C(=O)N[C@@H](Cc2c[nH]c3ccccc23)C(=O)N[C@@H](CCCCN)C(N)=O)[nH]1,"Tryptase beta-2 (TPSB2, Homo sapiens, UniProt P20231)","share from high-affinity mode, inhibitor",,concentration not given,25 to 30%
Nc1ccccc1NC(=O)c1ccc(Nc2nccc(-c3cn(C4CCCC4)nn3)n2)cc1,CDK4 with cyclin D3,"enzyme activity, inhibitor, TR-FRET",,50 nM,-0.72%
CC(C)c1ccc(COc2ccc(CC(=O)NCCN)cc2Cl)cc1,PDK1,"enzyme activity, inhibitor, ATP luminescence",,1 µM,54.7%
O=C(O)c1cc(S(=O)(=O)Nc2ccc(Br)cc2)ccc1Cl,"Ectonucleoside triphosphate diphosphohydrolase 8 (Homo sapiens, UniProt Q5MY95)","enzyme activity, inhibitor, absorbance",,100 µM,25%
CN(C1COC1)C(C)(C)/C=C(\C#N)C(=O)N1CCC[C@H]1Cn1nc(-c2ccc(Oc3ccccc3)cc2F)c2c(N)ncnc21,"Tyrosine-protein kinase TXK (TXK, Homo sapiens, UniProt P42681)",,,"1 µM, mean",> 90%
COCCNc1nc(C(=O)NCc2ccc(F)cc2)c(O)c2ncccc12,"Tripartite terminase subunit 3, C-terminal nuclease domain (Human betaherpesvirus 5, UniProt P16732)","endonuclease activity, ELISA",,10 µM,25 ± 6.5%
C[C@]12CC[C@@H]3c4cc(Br)c(O)c(Br)c4CC[C@H]3[C@@H]1CCC2=O,AKR1C2,"enzyme activity, inhibitor, absorbance",,"10 µM, pH 9",83%
O=C1C[C@H](c2ccc(O)c(O)c2)c2c(cc(O)c3c2O[C@H](c2ccc(O)c(O)c2)[C@H](O)C3)O1,α-glucosidase (Saccharomyces cerevisiae),inhibitor,,"10 µg/mL, together with: pNPG",45.2 ± 1.87%
O=C(NO)c1coc(-c2ccc3ccccc3c2)n1,hdac10,,,0.1 µM,< 10%
CNC(=O)c1ccccc1Oc1nc(Nc2cc(OC)c(OC)c(OC)c2)ncc1Br,"5'-AMP-activated protein kinase catalytic subunit alpha-1 (PRKAA1, Homo sapiens, UniProt Q13131)",inhibitor,,1 µM,~80%

# Some of these lines once more:
SMILES,target,test,system,setting,inhibition
C[C@]12CC[C@@H]3c4cc(Br)c(O)c(Br)c4CC[C@H]3[C@@H]1CCC2=O,AKR1C2,"enzyme activity, inhibitor, absorbance",,"10 µM, pH 9",83%
C[C@]12CCC[C@H]1[C@@H]1CCc3c(cc(Cl)c(O)c3Cl)[C@H]1CC2,AKR1C2,"enzyme activity, inhibitor, absorbance",,"100 µM, pH 9",76.8%
Cc1cccc(/C=C/C(=O)c2cnn(-c3ccccc3)c2C)c1,"Pancreatic alpha-amylase (AMY2, Sus scrofa, UniProt P00690)","enzyme activity, inhibitor, absorbance",,400 µM,42.4%
